Results from different studies.
Numbered parts are unrelated; each lists some results of a single study.

Block 1
Target: Histone acetyltransferase KAT6A, winged helix 1, GST fusion (KAT6A, Homo sapiens, UniProt Q92794, residues 1-85)
Method: protein binding microarray
Molecule type: double-stranded DNA, one strand shown
Sample: in vitro
Tested at: not given
Notes: 8-mer, flanks averaged, mean of 2 arrays, mostly near background
Relative to: not given
Direction: higher = stronger binding
Residues (chain): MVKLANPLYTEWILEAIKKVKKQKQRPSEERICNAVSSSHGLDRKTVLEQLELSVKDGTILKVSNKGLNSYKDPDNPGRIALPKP
Oligonucleotide	E-score
ATGCTCAC	0.0309
CTGTGCGA	0.00735
ACTAAACT	-0.0633
CCGTAAAG	0.278
ATCGTTAC	0.0167
ACTACGTC	-0.0412
GGAAGAGA	-0.0506
AATAAGTA	-0.18
GAAAGGCA	0.0476
CTACTCCC	-0.00921
AACGCTCG	0.166
CTGGGGGC	-0.0947
AATGACAC	-0.19
CGTCAGGA	-0.0957
AAATTTCT	-0.157
TGCAGACA	-0.327
CGCGCGGA	0.451
GCTTCACA	-0.0837
CCTAGACC	-0.158
CTGACCCC	-0.0469

Block 2
Target: Interferon regulatory factor 7, full length, phosphomimetic (IRF7, Homo sapiens, UniProt Q92985, residues 1-503, S471D/S472D/S475D/S476D/S477D/S483D/S484D/S487D)
Method: protein-binding microarray
Molecule type: double-stranded DNA, one strand shown
Sample: in vitro
Tested at: 2200 nM top
Notes: 60-bp whole probe
With: salmon DNA 0.4 mg/ml
Relative to: random background probes
Direction: higher = stronger binding
Constant ends, left off below: GCCTAGCAC … GTCTTGATTCGCTTGACGCTGCTG
Residues (chain): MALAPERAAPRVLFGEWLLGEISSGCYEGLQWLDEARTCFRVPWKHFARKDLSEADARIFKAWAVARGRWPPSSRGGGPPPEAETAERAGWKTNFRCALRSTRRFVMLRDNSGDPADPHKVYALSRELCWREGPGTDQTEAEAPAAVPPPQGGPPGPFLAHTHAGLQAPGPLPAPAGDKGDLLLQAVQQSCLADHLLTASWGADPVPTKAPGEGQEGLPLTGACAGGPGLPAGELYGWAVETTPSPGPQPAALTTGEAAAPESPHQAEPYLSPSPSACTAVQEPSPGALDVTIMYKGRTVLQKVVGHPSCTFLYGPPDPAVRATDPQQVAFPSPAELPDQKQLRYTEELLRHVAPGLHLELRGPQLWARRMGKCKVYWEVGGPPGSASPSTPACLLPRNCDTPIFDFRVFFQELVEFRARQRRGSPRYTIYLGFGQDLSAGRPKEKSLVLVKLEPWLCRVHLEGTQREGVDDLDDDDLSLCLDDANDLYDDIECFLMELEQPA
Oligonucleotide	fitted relative affinity
TCACTCTTCTGGATCTCACTGTGCTAG	1.64 z-score
GACAGTTTCGGTTTCGGGACGTGCTAG	17.3 z-score
GCGCCTGTAGCCCCTCCAGGGTGCTAG	-0.433 z-score
GACCATATCGGGTTTCGAGACGTGCTA	1.66 z-score
TTAGGTTCCCTTTACCTTTAGTGCTAG	2.15 z-score
GACGGCTTCGGGTATCGGGACGTGCTA	-0.0337 z-score
GACGATTACAGTTCCGAGACGTGCTAG	0.766 z-score
TTAGGTATCCTACTGCTATAGTGCTAG	0.583 z-score
TTAGGAATGGGGTATCGGTTAGTGCTA	0.0701 z-score
TTTGAACTGAGACTGGATTAGTGCTAG	-0.514 z-score
GACGGACAGCTACTGCTGACGTGCTAG	-0.73 z-score
TGCTTTGGACCCAGGGCTAAGTGCTAG	0.0511 z-score
TTAGCACTGGGACTGGGTTAGTGCTAG	-0.438 z-score
GACGGACTAGGGTATCGGGACGTGCTA	-0.903 z-score
GACGGACTGAGTTTCGAGACGTGCTAG	1.88 z-score
GACGGACTGGGACCGGGGACGTGCTAG	-0.783 z-score
TTAGATATCAGTCTCGCTTAGTGCTAG	0.263 z-score
TTAGGTATGGGGACTGGGTTAGTGCTA	-0.458 z-score
GACGGTTTCGGTTTCGGGGCGTGCTAG	14.9 z-score

Block 3
Target: Prothrombin, mature alpha-thrombin (F2, Homo sapiens, UniProt P00734)
Method: aptamer microarray, sandwich
Molecule type: DNA with 2'F-ANA
Sample: in vitro
Tested at: 200 nM
Notes: whole 15-mer aptamer, many near background
With: Cy3 exosite-II aptamer, 400 nM
Direction: higher = stronger binding
Oligonucleotide: GGTTGGTGTGGTTGG
Modification	mean fluorescence intensity
2'F-ANA at 1 5 6 10 11 12 14	121 a.u.
2'F-ANA at 1 9 13 15	147 a.u.
2'F-ANA at 1 4 6 9 10 11 15	49 a.u.
2'F-ANA at 3 4 5 6 7 10 12 15	57.1 a.u.
2'F-ANA at 1 8 10 11 12 13 14 15	46.3 a.u.
2'F-ANA at 2 3 4 8 10 13	227 a.u.
2'F-ANA at 5 6 8 10 11 15	45.5 a.u.
2'F-ANA at 1 2 9 10 11	56.7 a.u.
2'F-ANA at 1 3 5 8 10 11 12 13	48.7 a.u.
2'F-ANA at 1 2 4 6 7 9 10 13	60.2 a.u.
2'F-ANA at 3 4 5 6 8 10 11 12 13	65.5 a.u.
2'F-ANA at 3 4 6 8 11 13 14 15	262 a.u.
2'F-ANA at 2 3 4 5 7 8	118 a.u.
2'F-ANA at 1 4 5 7 8 9 11	53.3 a.u.
2'F-ANA at 8 9 10 13	137 a.u.
2'F-ANA at 4 5 6 9 12 14 15	52.5 a.u.
2'F-ANA at 1 2 7 8 9 12 15	499 a.u.
2'F-ANA at 2 3 4 6 7 8 10 11 13 14 15	137 a.u.
2'F-ANA at 1 2 3 5 14	48 a.u.
2'F-ANA at 2 3 11 13 14	448 a.u.
2'F-ANA at 3 9 10 11 12 13	572 a.u.

Block 4
Target: Ras GTPase-activating protein-binding protein 1, full length (G3BP1, Homo sapiens, UniProt Q13283)
UniProt Q13283, sequence (whole entry, looked up): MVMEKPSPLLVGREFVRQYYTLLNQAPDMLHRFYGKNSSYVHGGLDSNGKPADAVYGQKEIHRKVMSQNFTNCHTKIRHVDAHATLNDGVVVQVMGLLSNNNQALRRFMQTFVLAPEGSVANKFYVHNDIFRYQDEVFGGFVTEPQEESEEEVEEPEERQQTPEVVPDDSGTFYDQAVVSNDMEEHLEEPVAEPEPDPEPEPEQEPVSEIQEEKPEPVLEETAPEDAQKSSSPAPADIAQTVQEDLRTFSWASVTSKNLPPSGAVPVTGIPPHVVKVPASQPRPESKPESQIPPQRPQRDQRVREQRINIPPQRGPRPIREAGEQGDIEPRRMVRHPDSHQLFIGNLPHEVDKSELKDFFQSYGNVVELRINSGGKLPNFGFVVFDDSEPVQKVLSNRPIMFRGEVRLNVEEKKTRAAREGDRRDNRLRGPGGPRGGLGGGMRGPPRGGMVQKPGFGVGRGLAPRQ
Method: RNA Bind-n-Seq
Molecule type: RNA
Sample: in vitro
Tested at: 200 nM
Notes: whole 134-nt RNA, ends assumed
With: 150 mM KCl
Relative to: input library
Direction: higher = stronger binding
Constant ends, left off below: GGGAGUUCUACAGUCCGACGAUC … UGGAAUUCUCGGGUGUCAAGG
Oligonucleotide	log2 enrichment
CAAACUUAAAGUCUCCCUUGCUCGGAAGAAGCCUCCAAUGAACAGUAUGCGGGGUGGUCUGCCACCCCGUGAGGGCAGAGGCAUGCCACC	-0.0496
AGUCCUGUGCUACACAUCGUAUGUACCGAAUCGGAAAGGAAAAAAAGGAAAAAAAGGAAAGUAUUAUGUUACGCCGUUCGGAUCUGCACU	-0.982
AAGUCCUGUGCUACACAUCGUAUGUACCGAAUCGGAAAGGUUUUUUUGGAAAAAGGAAAGUAUUAUGUUACGCCGUUCGGAUCUGCACUU	-1.61
UGGCCCGCCGUCCUGAGGAAGCUGAGGUUCACUGCGGUGCCCAAGAACCACCAGGCGGUCCGGAACCCGUGAGCGGCUGCCAGGGGCUCU	0.405
AGUCCUGUGCUACACAUCGUAUGUACCGAAUCGGGGUUUUUGGGUUUUUGGUUUUUGGAAAGUAUUAUGUUACGCCGUUCGGAUCUGCAC	-0.821
AGUCCUGUGCUACACAUCGUAUGUACCGAAUCGGGGAAAGGGGUUUGGGGUUUGGGGAAAGUAUUAUGUUACGCCGUUCGGAUCUGCACU	0.488
UGUCAGGAUUAUGAAGAAGCUGUGCUCUUGCUGUUAGAAGGAGCUGCCUGGGAAGAAGCUUUGAGGCUGGUAAGAAUCUUGUAAAUCCUC	-1.13
UCCUGUGCUACACAUCGUAUGUACCGAAUCGGGGAAAAAGGGAAAAAGGGGAAAAAGGGGAAAGUAUUAUGUUACGCCGUUCGGAUCUGC	0.364
GUCCUGUGCUACACAUCGUAUGUACCGAAUCGGGAAAAAGGGAAAGGGUUUUUUUGGGAAAGUAUUAUGUUACGCCGUUCGGAUCUGCAC	-0.492

For quick reference, copied from above (block 3):
Modification	mean fluorescence intensity
2'F-ANA at 1 5 6 10 11 12 14	121 a.u.
2'F-ANA at 3 9 10 11 12 13	572 a.u.
2'F-ANA at 2 3 11 13 14	448 a.u.
2'F-ANA at 1 4 5 7 8 9 11	53.3 a.u.
2'F-ANA at 1 3 5 8 10 11 12 13	48.7 a.u.
2'F-ANA at 3 4 5 6 7 10 12 15	57.1 a.u.
2'F-ANA at 1 2 7 8 9 12 15	499 a.u.
2'F-ANA at 1 2 9 10 11	56.7 a.u.
2'F-ANA at 3 4 6 8 11 13 14 15	262 a.u.
2'F-ANA at 8 9 10 13	137 a.u.
